Measurements gathered from unrelated publications.
Numbers after ± are the reported error.
Organism: Leishmania donovani

| SMILES | test | test system | conditions | endpoint | value |
| --- | --- | --- | --- | --- | --- |
| CC(=O)[O-].F[P-](F)(F)(F)(F)F.[Cu+2].c1ccc(CN2CCN3CCN(CC2)CCN(Cc2ccccc2)CC3)cc1 | parasite growth, resazurin | – | 72 h, promastigote | IC90 | > 20 µM |
| CC1N=C(CCCCCCCCCCC2=CC(CCCCCCCCCCC3=NC(C)C(O)CC3)C3CCCN3C2)CCC1O (stereo not drawn) | Alamar Blue | axenic amastigotes | 72 h, 37 °C | IC90 | 5.89 ± 0.76 µg/mL |
| N=C(N)NCCC[C@H](NC(=O)[C@H](CCCNC(=N)N)NC(=O)[C@H](CCCNC(=N)N)NC(=O)[C@H](CCC(N)=O)NC(=O)[C@H](CCCNC(=N)N)NC(=O)[C@H](CCCNC(=N)N)NC(=O)[C@H](CCCCN)NC(=O)[C@H](CCCCN)NC(=O)[C@H](CCCNC(=N)N)NC(=O)CNC(=O)[C@H](Cc1ccc(O)cc1)NC(=O)CNC(=O)CNC(=O)[C@@H]1CCCCNC(=O)CCC(=O)N[C@@H](CCCNC(=N)N)C(=O)N[C@@H](CC(N)=O)C(=O)NCC(=O)N[C@@H](CCC(N)=O)C(=O)N[C@@H](CS)C(=O)N[C@@H](CCC(N)=O)C(=O)N[C@@H](CCCNC(=N)N)C(=O)N[C@@H](CCCCN)C(=O)N1)C(N)=O | parasite growth, resazurin | – | 48 h, promastigote | IC50 | ~6 µM |
| [Cl-].[Cl-].[Mn+2].c1ccc(CN2CCCNCCN(Cc3ccccc3)CCCNCC2)cc1 | parasite growth, resazurin | – | 72 h, promastigote | IC50 | 6.62 µM |
| O=S(=O)(CCC(F)(F)F)N[C@H]1CC[C@H](Nc2ncc3c(-c4ccccn4)n[nH]c3n2)CC1 | parasite growth | – | promastigote | EC50 | 0.0794 µM |
| O=C(NCCNCCO)c1cn(Cc2ccccc2)c2cc(Cl)c(OCc3ccc(Cl)cc3)cc2c1=O | – | Bob promastigotes | 120 h | IC50 | > 20 µM |
| [Cl-].[Cl-].[Mn+2].c1ccc(CN2CCNCCN(Cc3ccccc3)CCNCC2)cc1 | parasite growth | THP-1 macrophages | intracellular amastigotes | IC90 | 2.4 µM |
| N=C(N)NCCC[C@H](NC(=O)[C@H](CCCNC(=N)N)NC(=O)[C@H](CCCNC(=N)N)NC(=O)[C@H](CCC(N)=O)NC(=O)[C@H](CCCNC(=N)N)NC(=O)[C@H](CCCNC(=N)N)NC(=O)[C@H](CCCCN)NC(=O)[C@H](CCCCN)NC(=O)[C@H](CCCNC(=N)N)NC(=O)CNC(=O)[C@H](Cc1ccc(O)cc1)NC(=O)CNC(=O)CNC(=O)[C@H](CCCCN)NC(=O)[C@H](CCCNC(=N)N)NC(=O)[C@H](CCC(N)=O)NC(=O)[C@H](CS)NC(=O)[C@H](CCC(N)=O)NC(=O)CNC(=O)[C@H](CC(N)=O)NC(=O)[C@@H](N)CCCNC(=N)N)C(N)=O | parasite growth, resazurin | – | 48 h, promastigote | IC50 | ~40 µM |
| O=C(NCCNCCO)c1cn(Cc2ccccc2)c2cc(OCc3ccc(C(F)(F)F)cc3)c(Cl)cc2c1=O | – | Bob promastigotes | 120 h | IC50 | < 3 µM |

Some of these lines once more:
| SMILES | test | test system | conditions | endpoint | value |
| --- | --- | --- | --- | --- | --- |
| [Cl-].[Cl-].[Mn+2].c1ccc(CN2CCNCCN(Cc3ccccc3)CCNCC2)cc1 | parasite growth | THP-1 macrophages | intracellular amastigotes | IC90 | 2.4 µM |
| N=C(N)NCCC[C@H](NC(=O)[C@H](CCCNC(=N)N)NC(=O)[C@H](CCCNC(=N)N)NC(=O)[C@H](CCC(N)=O)NC(=O)[C@H](CCCNC(=N)N)NC(=O)[C@H](CCCNC(=N)N)NC(=O)[C@H](CCCCN)NC(=O)[C@H](CCCCN)NC(=O)[C@H](CCCNC(=N)N)NC(=O)CNC(=O)[C@H](Cc1ccc(O)cc1)NC(=O)CNC(=O)CNC(=O)[C@H](CCCCN)NC(=O)[C@H](CCCNC(=N)N)NC(=O)[C@H](CCC(N)=O)NC(=O)[C@H](CS)NC(=O)[C@H](CCC(N)=O)NC(=O)CNC(=O)[C@H](CC(N)=O)NC(=O)[C@@H](N)CCCNC(=N)N)C(N)=O | parasite growth, resazurin | – | 48 h, promastigote | IC50 | ~40 µM |
